Experimental data gathered from unrelated publications.
Each line is one published result; not all experiments were run side by side. Several values in a cell are separate wells, animals, samples, runs or records. ± marks the error that the study gave.

Substance	target or system	assay	system	setting	quantity	value
CN[C@@](C)(C[18F])C(=O)O	–	–	SCID mice (MDA-MB-468 xenograft)	60 min after injection	tumour uptake	3.9 ± 0.6 %ID/g
buprenorphine hydrochloride	UGT	measured: 4-MU glucuronide	human liver microsomes	together with: 4-methylumbelliferone 100 µM	IC50	6320 ± 1390 nM
CN1C(=O)CN=C(c2ccccc2)c2cc(Cl)ccc21	GABAA receptor, rat	GABA current potentiation, positive modulator, whole-cell voltage clamp	cultured Purkinje cells	after 2 h oxygen-glucose deprivation, together with: GABA EC20	EC50	2810 ± 400 nM
C[n+]1ccc(-c2ccccc2)cc1	human MATE1	uptake, substrate	CHO stably expressing MATE1	–	Kt	7.1 ± 3.3 µM
CO[C@H]1O[C@H](CO)[C@@H](O)[C@H](O)[C@@H]1O	Clematis montana lectin	hemagglutination	rabbit erythrocytes	together with: 8 hemagglutination units	minimum inhibitory concentration	> 160 mM
CC(=O)[C@H]1CC[C@H]2[C@@H]3CC[C@H]4C[C@H](O)CC[C@]4(C)[C@H]3CC[C@]12C	human GABA-A receptor, infant cortex	GABA current potentiation, positive allosteric modulator, two-electrode voltage clamp	Xenopus oocytes injected with membranes	together with: 10 µM GABA	EC50	314 nM
COc1cccc2c1C(=O)c1c(O)c3c(c(O)c1C2=O)C[C@@](O)(C(=O)CO)C[C@@H]3O[C@H]1C[C@H](N)[C@H](O)[C@H](C)O1	calf thymus DNA	terbium luminescence	–	24 h	concentration for maximal DNA damage	4 µM
CCOC(=O)c1ncn2c1[C@@H]1CCCN1C(=O)c1cc(OC)ccc1-2	GABAA receptor	GABA-induced current potentiation, positive modulator, automated patch clamp	Jurkat	together with: GABA EC3 0.3 µM	EC50	2500 nM
CC(=O)Nc1c(N)nc(SCC(=O)NN)[nH]c1=O	calf thymus DNA	terbium luminescence	–	24 h	concentration for maximal DNA damage	1 µM
Cc1ccc(-c2nc3ccc(C)cn3c2CC(=O)N(C)C)cc1	GABAA receptor, rat	GABA current potentiation, positive modulator, whole-cell voltage clamp	cultured Purkinje cells	together with: GABA EC20	EC50	466 ± 75.9 nM
O=c1[nH]c(=O)c2[nH]c(=O)[nH]c2[nH]1	MftR R63S (Burkholderia thailandensis)	–	–	concentration not given	melting temperature	64.1 °C and 48.7 °C

A few entries again:
Substance	target or system	assay	system	setting	quantity	value
O=c1[nH]c(=O)c2[nH]c(=O)[nH]c2[nH]1	MftR R63S (Burkholderia thailandensis)	–	–	concentration not given	melting temperature	64.1 °C and 48.7 °C
